# Experimental data collected from several papers.
# Numbered parts are unrelated; each lists some results of a single study.

# Set 1 — technique: competition protein-binding microarray; molecule type: double-stranded DNA, one strand shown; medium: in vitro; concentration: 2 µM; added: Pho4 competitor, 0.05 µM; reading: higher = stronger binding
# Target: Centromere-binding protein 1, full length, His-tagged (CBF1, Saccharomyces cerevisiae, UniProt P17106, residues 1-351)
# Sequence of UniProt P17106 (whole entry, looked up): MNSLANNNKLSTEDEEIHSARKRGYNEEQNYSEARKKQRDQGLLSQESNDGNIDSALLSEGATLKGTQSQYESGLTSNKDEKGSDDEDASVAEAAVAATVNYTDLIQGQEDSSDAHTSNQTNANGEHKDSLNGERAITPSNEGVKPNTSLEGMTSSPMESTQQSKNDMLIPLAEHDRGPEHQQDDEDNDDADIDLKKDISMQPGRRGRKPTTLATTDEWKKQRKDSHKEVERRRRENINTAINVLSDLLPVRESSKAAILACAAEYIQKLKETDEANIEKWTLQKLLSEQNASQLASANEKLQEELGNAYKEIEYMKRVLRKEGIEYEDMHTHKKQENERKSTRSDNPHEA
# Notes: whole 60-bp probe, lowest competitor level
Sequence,fluorescence intensity
AATGAGCAAAACTGGCACGATCCTGAAAAGAGCACTGTCTTGATTCGCTTGACGCTGCTG,72.5 a.u.
CTTCTGTAAATTTTTCACGTGCGCTGACGCGCCCCGGTCTTGATTCGCTTGACGCTGCTG,966 a.u.
CTCGAATCGAAAACAAACGTGGCCGTTGGTCCATCAGTCTTGATTCGCTTGACGCTGCTG,77.3 a.u.

# Set 2 — technique: universal PBM; molecule type: double-stranded DNA, one strand shown; medium: in vitro; concentration: not given; reading: higher = stronger binding
# Target: Sal-like protein 4, full length isoform B (SALL4, Homo sapiens, UniProt Q9UJQ4-2, residues 1-616)
# Notes: 8-mer, flanks averaged, mean of replicates
Sequence,E-score
CCTTTGCC,-0.0251
CCATGCGC,-0.247
CCCACGGC,-0.255

# Mixed results
Substance,target,test,test system,conditions,scale,measurement,result
GCCTAGCACTCATGTTTTTTTCTATAACTGTGCTAGGTCTTGATTCGCTTGACGCTGCTG,"Interferon regulatory factor 5, full length, phosphomimetic (IRF5, Homo sapiens, UniProt Q13568-2, residues 1-514, K96S/S451D/S453D/S456D/S462D)",protein-binding microarray,"double-stranded DNA, one strand shown, in vitro","250 nM, 60-bp whole probe, added: salmon DNA 0.4 mg/ml","baseline: random background probes, higher = stronger binding",log fluorescence,1.34 z-score
"PhoQ, residues 284 288 289 292 302 303 MLMVEA","PhoP, residues 12 14 15 18 19 NMSFL (Escherichia coli, UniProt P23836)","Sort-seq, item: YFP reporter",E. coli,"PhoQ-PhoP variant library, added: 10 µM Mg2+","baseline: high Mg2+ state, higher = stronger signaling",fold induction,8.35

# Excerpt of the above (set 1):
Sequence,fluorescence intensity
CTTCTGTAAATTTTTCACGTGCGCTGACGCGCCCCGGTCTTGATTCGCTTGACGCTGCTG,966 a.u.
